Results gathered from unrelated publications.
A part holds a random share of what one study measured. Changes are numbered by the printed parent chain.

Series 1
Target: Histone acetyltransferase KAT6A, both winged helices, GST fusion (KAT6A, Homo sapiens, UniProt Q92794, residues 1-181)
Method: protein binding microarray
Form: double-stranded DNA, one strand shown
Matrix: in vitro
Concentration: not given
Setting: 8-mer, flanks averaged, mean of 2 arrays, mostly near background
Baseline: not given
Direction: higher = stronger binding
Target sequence (chain): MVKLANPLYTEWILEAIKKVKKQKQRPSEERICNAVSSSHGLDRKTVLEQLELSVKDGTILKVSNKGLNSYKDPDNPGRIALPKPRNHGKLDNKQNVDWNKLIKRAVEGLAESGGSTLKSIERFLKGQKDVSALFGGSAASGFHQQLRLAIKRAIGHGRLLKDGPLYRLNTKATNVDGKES
Strand	E-score
GATTGTAC	-0.0657
TCGGGGCA	0.0257
AATGATAC	-0.0515
ATCCCCAG	-0.286
CTATGTCA	-0.215
ATGCGTTA	0.0466
ATCGTGCG	0.17
ACAGTGGA	-0.077
ATTCAGGA	-0.155
ACGTAGGC	0.0101
AATAGGTC	0.0256
GCTATTCA	-0.0196
AACCAGTA	0.0502
CGAGAACA	0.0244
CCTCTTGC	-0.0828
TCTGGTCA	-0.224
AAGGTCCT	-0.202
ACAGCACT	-0.144
ACAGGGAT	-0.259
CAACAGGG	-0.244
AAGCGTAT	0.156
GTATATAC	0.0169
CGTCCTAA	-0.0936
AGCAGGAT	-0.28
AACCTCGC	0.0816

Series 2
Target: CCNA1, cyclin fold, Cln2 fusion (human)
Method: yeast growth competition, sequencing
Matrix: yeast
Setting: weak parent motif
Baseline: not given
Direction: higher = stronger binding
Starting sequence: CDT1 docking peptide (human); PPARRRLRLSVDE; partner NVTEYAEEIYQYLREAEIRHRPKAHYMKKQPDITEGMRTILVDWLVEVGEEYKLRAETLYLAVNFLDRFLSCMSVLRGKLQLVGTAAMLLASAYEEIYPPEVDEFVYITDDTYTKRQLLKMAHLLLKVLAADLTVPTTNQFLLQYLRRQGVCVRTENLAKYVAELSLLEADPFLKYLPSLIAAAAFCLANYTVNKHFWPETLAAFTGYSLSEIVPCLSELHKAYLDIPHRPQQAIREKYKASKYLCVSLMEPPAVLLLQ
Variant	normalised enrichment score
PPARRRARLSVDE [L7A]	0.609
PPARRRLALSVDE [R8A]	0.512
PPARRRLRLSVAE [D12A]	0.811
PPARRALRLSVDE [R6A]	0.609
PPARRRLRLSADE [V11A]	0.197
PPARKRLRFSVDE [R5K L9F]	0.706
PPARRRLRASVDE [L9A]	0.325

Series 3
Target: RING finger protein unkempt homolog, zinc fingers 1-6, GST-SBP tag (UNK, Homo sapiens, UniProt Q9C0B0, residues 30-357)
UniProt Q9C0B0, sequence (30-357, looked up): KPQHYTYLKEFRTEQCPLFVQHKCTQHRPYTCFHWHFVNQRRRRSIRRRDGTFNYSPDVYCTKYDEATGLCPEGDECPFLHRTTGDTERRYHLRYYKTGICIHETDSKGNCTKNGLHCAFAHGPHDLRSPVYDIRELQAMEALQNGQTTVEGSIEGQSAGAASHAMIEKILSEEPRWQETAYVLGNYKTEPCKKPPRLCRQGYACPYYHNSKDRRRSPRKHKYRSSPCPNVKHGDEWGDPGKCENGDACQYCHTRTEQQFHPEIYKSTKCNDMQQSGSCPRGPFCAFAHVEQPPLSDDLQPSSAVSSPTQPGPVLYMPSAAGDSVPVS
Method: RNA Bind-n-Seq
Form: RNA
Matrix: in vitro
Concentration: not given
Setting: RNA with constant flanks, ends assumed
Baseline: input RNA pool
Direction: higher = stronger binding
Shared flanks, not repeated: GGGAGUUCUACAGUCCGACGAUC … CAACAGAGGAUUGAGCAUCA
Strand	bound/input enrichment
GCCAAGGCCAUUCAGCUGAACAGUAAUAGUGUUCAAGCUCUGCUACUUAAGGGAGCAGCACUCCGGAACAUGGGCAGAGUCCAAGAAGCAAUAAUCCACUUUCGGGAGGCCAUACGGCUC	0.125 ratio
GAAGAAGCCCAUAAACUACCAGUAAAACACUUUACUAAUCCAUAUUGUAACAUCUACUUGAACCGCGUCCAAGUAGCAAAAACUCAUGCAAGGGAGGGGCAAAACCCAGUAUGGUCAGAG	0.301 ratio
AGAAUCUUGGGACUGUUUUACUUAAUUGGUCAUUGAUAGCUUAACAAACAUGGAGAUAAGAUCCGAAAUCUUGACAUCAACAGGUAUUAAGCAGAAAAAACCAUGGCCACGUGUCUCCUG	0.11 ratio
UUGGAUUUCAUUUCCCCAGGUCUUCAGUGUUGAUGUAAAUGUGUUUCUGUAGUGUUGCUUAUCCGCACUUUGCGCAUUGUGUAAGUUGGGUAGCAAAAAUGGCAAAAGAGAUGCAAAAUU	0.153 ratio
GUAGCUUCUAGAGAUAAUUUUGAGGAUGAGACUGAAGAUGAUGAUCUGUUUGAAACUGAAUUCCGACAAUAUAAGAGAACAUACUACAUGACGAAGAUGGGCGUCGAUGUAGUAUCUGAU	1.42 ratio
AGCAAAGAAGAAGUUAUCCGCUUUUUGGAAAGUACCCCGGCCAGCCUGAAUCUGGAAGACACCGAAGACCUGUUCUCUUUGGCUCAGUAUUACUGUAGUAAGACGCCAGCUUCUUUUAGG	0.229 ratio
UAGUGAAUGGUUUCCCCAGUGUAUAUGAAUGUUUUAAGUGUCUCCAAUAGCUUAUGCAGUCCCGGAGCUUUCCAAUACUCAUUUAAUUAAGAUUUAAUCAUUUGCUAAUGGAAAUCUUAC	0.614 ratio
UCUGAGAAUUACAAACAGAAGAUAGAAAGAAGUCUUAAAGCUGGUACAGUUAAAGAAUGUAUCCGUCUCAGAAGCUGUGUAUGUUUAUGUGAUAGAAUCUAAAUAAAAUACAGACAUCUA	0.256 ratio
AUCUACGAAGAACUUGGCUAUGGCUGAUCUUUUUUAAAUUUAACUUUCUGAUGGACCCUGCCGUUUCCAGUUAAGUGCAGAUUCCUUACAGACAUAUAGAACAGCGCAUUCUUCUGUAGA	1.13 ratio
AGUGAAAGACUCUUUUAUUAUAUUGCUGUCUCUUUGUUACCCCAUGAGACUUUGCCCGAGAUUGAAAAUGCAGUGGAGAGCGGCCGGGCACUGCUACCCAUUCUCCAGUGGCACAAGCAC	0.612 ratio
GAAUUUGCCUAUACUUCUGUACUAAGUUUUGAUUUCUGUAGCAUGGCUGAUGUAGCCAUCUCCGCUCGUCAUCUUUUCAUGUCAGAAGUCUUAGAGAUUUGUGAAAGUGUACAUAAGCUA	0.22 ratio

Series 4
Target: Ras GTPase-activating protein-binding protein 1, RRM domain (G3BP1, Homo sapiens, UniProt Q13283)
UniProt Q13283, sequence (whole entry, looked up): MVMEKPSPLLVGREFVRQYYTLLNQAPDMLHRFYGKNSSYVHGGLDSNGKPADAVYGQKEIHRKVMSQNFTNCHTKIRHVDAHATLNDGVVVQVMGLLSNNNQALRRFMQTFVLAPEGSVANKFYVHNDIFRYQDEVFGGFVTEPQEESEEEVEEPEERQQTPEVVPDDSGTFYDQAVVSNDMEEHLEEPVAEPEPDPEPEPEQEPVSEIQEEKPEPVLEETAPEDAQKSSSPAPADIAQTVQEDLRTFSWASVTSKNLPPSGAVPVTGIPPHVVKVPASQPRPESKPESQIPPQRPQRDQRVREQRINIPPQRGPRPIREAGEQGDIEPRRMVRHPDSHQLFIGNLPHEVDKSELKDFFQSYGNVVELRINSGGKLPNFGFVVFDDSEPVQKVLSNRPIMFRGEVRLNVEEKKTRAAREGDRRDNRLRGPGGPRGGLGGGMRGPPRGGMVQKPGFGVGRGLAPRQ
Method: RNA Bind-n-Seq
Form: RNA
Matrix: in vitro
Concentration: 1 µM
Setting: whole 134-nt RNA, ends assumed
With: 150 mM KCl
Baseline: input library
Direction: higher = stronger binding
Shared flanks, not repeated: GGGAGUUCUACAGUCCGACGAUC … UGGAAUUCUCGGGUGUCAAGG
Strand	log2 enrichment
CUCAAGUCCUGUGCUACACAUCGUAUGUACCGAAUCGGGGAGGGGAGGGGAGGAAAGUAUUAUGUUACGCCGUUCGGAUCUGCACUUCCA	0.0861
CUGUGCUACACAUCGUAUGUACCGAAUCGGGGAAAAAAAGGGAAAAAAAGGAAAAAAAGGGGAAAGUAUUAUGUUACGCCGUUCGGAUCU	0.116
CUCAAGUCCUGUGCUACACAUCGUAUGUACCGAAUCGGGCCGGGCCGGGCCGGAAAGUAUUAUGUUACGCCGUUCGGAUCUGCACUUCCA	-1.11
CACAGACAACACGCACCCACACAGACACAGAGGGAAGGGGAUGGGAUGGGGACAGGGUGCACAGCAGGGCGGGGUAGGACCCCAGCCCCU	-0.0248
GUCCUGUGCUACACAUCGUAUGUACCGAAUCGGGAAAAAGGGAAAAAGGGAAAAAGGGAAAGUAUUAUGUUACGCCGUUCGGAUCUGCAC	0.276
AGUCCUGUGCUACACAUCGUAUGUACCGAAUCGGUUUUUGGGUUUUUGGGUUUUUGGGAAAGUAUUAUGUUACGCCGUUCGGAUCUGCAC	-0.0803
CAAGUCCUGUGCUACACAUCGUAUGUACCGAAUCGGUGGAAAAAAAGGUUUUUGGAAAGUAUUAUGUUACGCCGUUCGGAUCUGCACUUC	-0.257
UAACUUUAGAGGAGGAUCUGAUCGAUAUGGCAGUGGACGUGGAUUUGGGGAUGGCUAUAAUGGGUAUGGAGGAGGACCUGGAGGUGGCAA	-0.761
GCAGGAAGUAAAAACAAAUGGAAAUGCUUCGGAUAGUGGCAGGGGUGGGGGUUAAAAAGGAAAGGGUGGGAUGGGAGUGGGUAAAGAGUU	1.1
GCAGGAAGUAAAAACAAAUAGAAAUGCUUCGGAUAGUGGCAGGGGUGGGGGUUGCUAAGGAAAGGGUGGGAUGGGAGUGGGUAAAGAGUU	1.13
UGGCCCUGGUGGCAUGCGGGGAGGAAGAGGUGGUCUCAUGGAUCGUGGUGGUCCCGGUGGAAUGUUCAGAGGUGGCCGUGGUGGAGACAG	0.959
UCAAGUCCUGUGCUACACAUCGUAUGUACCGAAUCGGGUGGGAGGGUUUUUGGGAAAGUAUUAUGUUACGCCGUUCGGAUCUGCACUUCC	0.579
GUCCUGUGCUACACAUCGUAUGUACCGAAUCGGGGAAAGGGGAGGGGAAAAAAAGGGGAAAGUAUUAUGUUACGCCGUUCGGAUCUGCAC	0.775
CCUGUGCUACACAUCGUAUGUACCGAAUCGGGGAAAAAGGGGAAAAAGGGGAAAAAGGGGAAAGUAUUAUGUUACGCCGUUCGGAUCUGC	0.674

Series 5
Target: ABI1, truncated, D143A, DHFR fusion (Arabidopsis thaliana)
Method: DHFR PCA, deep sequencing
Matrix: yeast
Setting: methotrexate growth selection, single substitutions
With: (+)-ABA 58 µM
Baseline: wild-type fitted maximum
Direction: higher = stronger binding
Starting sequence: PYL1, truncated, DHFR fusion (Arabidopsis thaliana); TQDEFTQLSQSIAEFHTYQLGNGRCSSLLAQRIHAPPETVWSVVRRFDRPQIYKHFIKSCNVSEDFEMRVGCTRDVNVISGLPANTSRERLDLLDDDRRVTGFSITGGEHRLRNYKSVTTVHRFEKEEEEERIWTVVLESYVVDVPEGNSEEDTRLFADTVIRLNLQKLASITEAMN; partner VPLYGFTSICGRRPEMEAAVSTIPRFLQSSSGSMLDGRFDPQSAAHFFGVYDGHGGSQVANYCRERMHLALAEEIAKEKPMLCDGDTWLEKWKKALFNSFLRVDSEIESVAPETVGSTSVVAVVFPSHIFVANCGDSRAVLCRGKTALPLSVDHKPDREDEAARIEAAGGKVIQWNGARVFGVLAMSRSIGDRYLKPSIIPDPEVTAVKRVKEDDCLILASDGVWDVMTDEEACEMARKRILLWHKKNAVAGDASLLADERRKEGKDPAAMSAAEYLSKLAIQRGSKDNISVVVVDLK
Variant	relative binding score [%]
F15I	45.7
Q31I	47.6
H55M	90.4
A35Y	-0.0627
T135L	1.49
E109W	32.2
F66T	72.1
E130G	91.7
D65E	82
Y53P	-6.37
L156N	71.6
H122Q	29.7
K168L	39.9
F103R	-11.5
R123H	99
A30C	90

Series 6
Target: CEP164, C-terminal peptide (human)
Method: DHFR complementation, deep sequencing
Matrix: yeast
Setting: single substitutions, model-inferred values
Baseline: wild type
Direction: higher = weaker binding
Starting sequence: PDZK1, PDZ domain 2 (human); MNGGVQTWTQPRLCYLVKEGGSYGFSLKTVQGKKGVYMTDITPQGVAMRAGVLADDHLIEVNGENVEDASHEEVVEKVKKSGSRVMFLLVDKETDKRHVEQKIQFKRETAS; partner HNRVKVYRF
Variant	binding free energy change
S70R	0.0824 kcal/mol
Q44I	0.671 kcal/mol
E108I	-0.233 kcal/mol
M38D	2.3 kcal/mol
G51N	0.747 kcal/mol
E72V	0.402 kcal/mol
M86I	0.0295 kcal/mol
Y23G	1.48 kcal/mol
F105H	-0.164 kcal/mol
L53E	0.369 kcal/mol
E64N	0.146 kcal/mol
T9S	-0.0538 kcal/mol
L16K	1.38 kcal/mol
A50M	0.292 kcal/mol
A47I	0.813 kcal/mol

Other studies, line by line
Molecule	target	test	test system	setting	how to read	measurement	result
PhoQ, residues 284 288 289 292 302 303 TLSLKA	PhoP, residues 12 14 15 18 19 GQALL (Escherichia coli, UniProt P23836)	Sort-seq, measured: YFP reporter	E. coli	PhoQ-PhoP variant library, with: 10 µM Mg2+	baseline: high Mg2+ state, higher = stronger signaling	fold induction	0.249

For quick reference, copied from above (series 4):
Strand	log2 enrichment
GUCCUGUGCUACACAUCGUAUGUACCGAAUCGGGGAAAGGGGAGGGGAAAAAAAGGGGAAAGUAUUAUGUUACGCCGUUCGGAUCUGCAC	0.775
CAAGUCCUGUGCUACACAUCGUAUGUACCGAAUCGGUGGAAAAAAAGGUUUUUGGAAAGUAUUAUGUUACGCCGUUCGGAUCUGCACUUC	-0.257
UCAAGUCCUGUGCUACACAUCGUAUGUACCGAAUCGGGUGGGAGGGUUUUUGGGAAAGUAUUAUGUUACGCCGUUCGGAUCUGCACUUCC	0.579
UAACUUUAGAGGAGGAUCUGAUCGAUAUGGCAGUGGACGUGGAUUUGGGGAUGGCUAUAAUGGGUAUGGAGGAGGACCUGGAGGUGGCAA	-0.761
CCUGUGCUACACAUCGUAUGUACCGAAUCGGGGAAAAAGGGGAAAAAGGGGAAAAAGGGGAAAGUAUUAUGUUACGCCGUUCGGAUCUGC	0.674
GCAGGAAGUAAAAACAAAUGGAAAUGCUUCGGAUAGUGGCAGGGGUGGGGGUUAAAAAGGAAAGGGUGGGAUGGGAGUGGGUAAAGAGUU	1.1
GCAGGAAGUAAAAACAAAUAGAAAUGCUUCGGAUAGUGGCAGGGGUGGGGGUUGCUAAGGAAAGGGUGGGAUGGGAGUGGGUAAAGAGUU	1.13
GUCCUGUGCUACACAUCGUAUGUACCGAAUCGGGAAAAAGGGAAAAAGGGAAAAAGGGAAAGUAUUAUGUUACGCCGUUCGGAUCUGCAC	0.276
